Values quoted from earlier work that unrelated publications cite.
Protocols differ between the studies behind these lines. ≈ marks a conversion by molar mass, not a printed value.

| Compound | target or system | test | test system | conditions | scale | quantity | value |
| --- | --- | --- | --- | --- | --- | --- | --- |
| O=C(NCCCN1CCCC2=CC3CC(CN4CCCCC34)C21)c1ccc(OC(F)(F)F)cc1 (centres unmarked) | HIV-1 NL4-3 Nanoluc | viral replication | MT-4 | – | – | IC50 | > 40000 nM |
| CCCCCC(=O)NC(C(=O)NCc1ccc(NC(=N)N)cc1)c1ccc(OCc2ccccc2)cc1 (centres unmarked) | dengue virus 2 | viral replication | New Guinea C | – | – | EC50 | 890 nM |
| CCCCCCCCCC(=O)CC(=O)NC1CCCCC1=O (centres unmarked) | Pseudomonas aeruginosa | pyocyanin production | PAO-JP2 | 50 µM | – | inhibition | 35% |
| COC(=O)OC1C(=O)C2(C)C(O)CC3OCC3(OC(C)=O)C2C(OC(=O)c2cccc(OC(F)(F)F)c2)C2(O)CC(OC(=O)C(O)C(C=C(C)C)NC(=O)OC(C)(C)C)C(C)=C1C2(C)C (centres unmarked) | LCC6-WT | cytotoxicity | – | – | – | IC50 | 0.85 nM |
| NS(=O)(=O)c1nnc(NC(=O)CCc2ccccc2)s1 | Enterococcus | – | vancomycin-resistant, three strains | range across strains | – | MIC | 0.192 to 0.384 µM (≈ 0.06 to 0.12 µg/mL) |
| COC(=O)OC1C(=O)C2(C)C(O)CC3OCC3(OC(C)=O)C2C(OC(=O)c2cccc(OC(F)F)c2)C2(O)CC(OC(=O)C(O)C(C=C(C)C)NC(=O)OC(C)(C)C)C(C)=C1C2(C)C (centres unmarked) | LCC6-WT | cytotoxicity | – | – | – | IC50 | 0.67 nM |
| CC(=O)c1ccc2c(c1)c(=O)c(C(=O)NCCOCCO)cn2Cc1ccc(Br)cc1 | Trypanosoma brucei brucei | parasite growth | – | – | – | EC50 | 7000 nM |
| CC[C@H](C)[C@H](NC(=O)[C@H](CCCCN)NC(=O)[C@H](CCCNC(=N)N)NC(=O)[C@H](CCCCN)NC(=O)[C@H](CC(C)C)NC(=O)[C@H](Cc1ccccc1)NC(=O)[C@H](CCC(=O)O)NC(=O)[C@H](CCCCN)NC(=O)[C@@H](NC(=O)[C@@H](NC(=O)[C@H](CCC(=O)O)NC(=O)[C@H](C)NC(=O)CNC(=O)[C@@H](N)CCCNC(=N)N)[C@@H](C)O)C(C)C)C(=O)N[C@@H](CCCNC(=N)N)C(=O)N[C@@H](CCC(=O)O)C(=O)N[C@@H](CCCNC(=N)N)C(=O)NCC(=O)N[C@H](C(=O)N[C@@H](CCCCN)C(=O)N[C@@H](C)C(=O)N[C@H](C(=O)N[C@H](C(=O)N[C@@H](C)C(=O)N[C@@H](Cc1c[nH]c2ccccc12)C(=O)O)[C@@H](C)CC)C(C)C)[C@@H](C)O | Pseudomonas aeruginosa | – | – | – | – | MIC | 64 µM (≈ 188 µg/mL) |
| CC[C@H](C)[C@H](NC(=O)[C@H](CCCN)NC(=O)[C@H](CCCNC(=N)N)NC(=O)[C@@H]1CCCN1C(=O)[C@@H]1CCCN1C(=O)[C@H](CCCNC(=N)N)NC(=O)[C@@H]1CCCN1C(=O)[C@H](CCCNC(=N)N)NC(=O)[C@@H]1CCCN1C(=O)[C@H](CC(C)C)NC(=O)[C@H](Cc1ccc(O)cc1)NC(=O)[C@@H]1CCCN1C(=O)[C@@H]1CCCN1C(=O)[C@H](CCCCN)NC(=O)[C@H](CC(=O)O)NC(=O)[C@@H](N)C(C)C)C(=O)N[C@@H](Cc1ccc(O)cc1)C(=O)N[C@@H](CC(N)=O)C(=O)N[C@@H](CCCN)C(N)=O | – | sandwich ELISA | plasma | ip, 5 mg/kg, 10 min | – | plasma concentration | 5170 ng/mL |
| CCN(CC)CC#CCNc1ccnc2cc(Cl)ccc12 | Plasmodium falciparum | parasite growth, SYBR Green I | K1 | – | baseline: IC50 K1 over IC50 3D7 | resistance index | 1.1 |
| CC[C@H](C)[C@H](NC(=O)[C@H](CCCNC(=N)N)NC(=O)[C@@H]1CCCN1C(=O)[C@H](CCCNC(=N)N)NC(=O)[C@H](Cc1ccccc1)NC(=O)[C@H](Cc1c[nH]cn1)NC(=O)[C@H](CCCNC(=N)N)NC(=O)[C@H](CC(C)C)NC(=O)[C@H](CCCCN)NC(=O)CNC(=O)[C@H](CC(C)C)NC(=O)[C@H](Cc1ccccc1)NC(=O)[C@H](CCCNC(=N)N)NC(=O)CNC(=O)[C@H](Cc1ccccc1)NC(=O)[C@H](CCCNC(=N)N)NC(=O)CNC(=O)[C@H](CCCNC(=N)N)NC(=O)[C@H](CCC(N)=O)NC(=O)[C@@H](NC(=O)[C@@H](N)CC(C)C)[C@@H](C)CC)C(=O)N[C@@H](CCCCN)C(=O)N[C@@H](Cc1ccccc1)C(=O)N[C@@H](CCCCN)C(=O)NCC(=O)N[C@@H](CCCCN)C(=O)N[C@@H](C)C(=O)NCC(=O)N[C@@H](Cc1c[nH]c2ccccc12)C(=O)N[C@H](C(=O)N[C@H](C(=O)NCC(=O)O)C(C)C)[C@@H](C)O | Escherichia coli | – | – | – | – | MIC | 64 µM (≈ 242 µg/mL) |

Excerpt of the above:
| Compound | target or system | test | test system | conditions | scale | quantity | value |
| --- | --- | --- | --- | --- | --- | --- | --- |
| NS(=O)(=O)c1nnc(NC(=O)CCc2ccccc2)s1 | Enterococcus | – | vancomycin-resistant, three strains | range across strains | – | MIC | 0.192 to 0.384 µM (≈ 0.06 to 0.12 µg/mL) |
